# Published values pooled from the literature.
# Parts stem from different laboratories: compare values within a part only. Positions count from the first letter of the parent shown.

# Series 1
# Target: CCNA2, cyclin fold, Cln2 fusion (human)
# Method: yeast growth competition, sequencing
# Medium: yeast
# Setting: strong parent motif
# Baseline: not given
# Reading: higher = stronger binding
# Starting sequence: CDKN1B docking peptide (human); PSACRNLFGPVDH; partner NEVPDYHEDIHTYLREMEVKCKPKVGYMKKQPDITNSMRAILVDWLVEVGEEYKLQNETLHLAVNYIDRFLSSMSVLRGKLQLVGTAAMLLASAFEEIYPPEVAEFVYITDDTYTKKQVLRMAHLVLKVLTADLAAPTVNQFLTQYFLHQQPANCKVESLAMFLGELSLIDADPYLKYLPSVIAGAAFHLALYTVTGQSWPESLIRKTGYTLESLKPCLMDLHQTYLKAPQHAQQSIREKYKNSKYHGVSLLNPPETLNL
Change,normalised enrichment score
C4Y,1.62
V11P,4.12
P1R,4.69
P1Y,3.57
G9F,1.53
C4R,5.99
H13D,4.02
F8I,0.695
R5A L7A,-0.354
H13C,3.9

# Series 2
# Target: ABI1, truncated, D143A, DHFR fusion (Arabidopsis thaliana)
# Method: DHFR PCA, deep sequencing
# Medium: yeast
# Setting: methotrexate growth selection, single substitutions
# Added: (+)-ABA 17 µM
# Baseline: wild-type fitted maximum
# Reading: higher = stronger binding
# Starting sequence: PYL1, truncated, DHFR fusion (Arabidopsis thaliana); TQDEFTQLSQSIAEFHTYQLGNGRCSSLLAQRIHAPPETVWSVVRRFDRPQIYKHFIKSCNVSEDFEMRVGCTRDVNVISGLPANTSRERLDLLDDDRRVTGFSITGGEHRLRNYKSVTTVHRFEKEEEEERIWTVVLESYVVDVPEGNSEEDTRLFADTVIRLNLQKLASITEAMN
Change,relative binding score [%]
K126S,97.6
E129G,99.2
A170Y,-8.45
F47P,-11.9
V142G,33.3
T119F,4.48
E4P,69.3
R49I,48.5

# Series 3
# Target: Sal-like protein 4, full length isoform A (SALL4, Homo sapiens, UniProt Q9UJQ4, residues 1-1053)
# UniProt Q9UJQ4, sequence (whole entry, looked up): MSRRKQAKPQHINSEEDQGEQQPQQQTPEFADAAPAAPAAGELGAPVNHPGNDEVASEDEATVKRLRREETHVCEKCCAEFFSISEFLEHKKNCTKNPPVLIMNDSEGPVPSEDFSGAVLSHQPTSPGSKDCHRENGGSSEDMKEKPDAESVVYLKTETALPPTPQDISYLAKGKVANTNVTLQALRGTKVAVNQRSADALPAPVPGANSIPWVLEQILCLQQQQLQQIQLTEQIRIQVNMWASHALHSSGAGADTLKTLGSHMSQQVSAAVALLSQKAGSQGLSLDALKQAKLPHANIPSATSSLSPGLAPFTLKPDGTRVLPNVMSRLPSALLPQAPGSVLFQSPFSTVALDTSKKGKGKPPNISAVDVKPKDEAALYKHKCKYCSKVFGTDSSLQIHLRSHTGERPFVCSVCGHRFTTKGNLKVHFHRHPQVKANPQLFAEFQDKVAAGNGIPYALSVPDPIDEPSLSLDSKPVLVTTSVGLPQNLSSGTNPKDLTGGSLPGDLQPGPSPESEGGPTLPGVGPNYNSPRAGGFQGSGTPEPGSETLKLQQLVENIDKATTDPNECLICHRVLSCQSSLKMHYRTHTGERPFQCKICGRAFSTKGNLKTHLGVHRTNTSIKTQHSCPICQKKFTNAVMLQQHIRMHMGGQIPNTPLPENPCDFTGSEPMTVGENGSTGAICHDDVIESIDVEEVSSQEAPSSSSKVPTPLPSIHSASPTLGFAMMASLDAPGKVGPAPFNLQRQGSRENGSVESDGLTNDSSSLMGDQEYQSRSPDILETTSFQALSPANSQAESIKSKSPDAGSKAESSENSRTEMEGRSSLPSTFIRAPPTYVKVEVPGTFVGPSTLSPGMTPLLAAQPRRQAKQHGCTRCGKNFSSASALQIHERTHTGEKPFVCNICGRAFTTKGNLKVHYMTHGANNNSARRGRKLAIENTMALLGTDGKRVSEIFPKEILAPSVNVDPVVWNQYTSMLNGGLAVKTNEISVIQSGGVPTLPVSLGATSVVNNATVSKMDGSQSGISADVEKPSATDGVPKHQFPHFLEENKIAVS
# Method: universal PBM
# Form: double-stranded DNA, one strand shown
# Medium: in vitro
# Concentration: 600 nM
# Setting: 8-mer, flanks averaged, mean of replicates
# Reading: higher = stronger binding
Strand,E-score
ACGTGAAC,-0.183
GTCTCTTA,0.0531
GATGGATA,0.112
ATAGGATG,0.158
ACTTCAGG,0.0385
GAGAGACC,-0.263
GCAGTCAC,-0.124
TACCTAAA,0.131
GAATTGCA,0.0892
CCCCTATA,0.0743

# Mixed results
Molecule,target,assay,system,setting,how to read,endpoint,value
"PhoQ, residues 284 288 289 292 302 303 TLSLKA","PhoP, residues 12 14 15 18 19 VQGLL (Escherichia coli, UniProt P23836)","Sort-seq, item: YFP reporter",E. coli,"PhoQ-PhoP variant library, added: 10 µM Mg2+","baseline: high Mg2+ state, higher = stronger signaling",fold induction,1.06

# Some of these lines once more (series 3):
Strand,E-score
GATGGATA,0.112
ACTTCAGG,0.0385
TACCTAAA,0.131
GCAGTCAC,-0.124
